Results collected from several papers.
Compare with care: the assays were run in different laboratories. Values joined by “and” are separate records of one study, mostly repeats; a detail may differ. ± marks the error that the study gave. ≈ marks a conversion by molar mass, not a printed value.

The plasma half-life of `Cn1nnc2c(C(N)=O)ncn2c1=O` is reported as 0.757 ± 0.021 h (FVB mice, Abcb1a/b knockout; intravenous, 50 mg/kg).
`O=C1Nc2cc(F)cc(F)c2C(=O)CCc2ccccc21` gave a kinetic solubility of 50 to 100 µg/mL (≈ 174 to 348 µM) (nephelometry; aqueous buffer; 30 min, pH 6.5).
`COCCNC(=O)c1ccc(OC2CCN(Cc3ccc(F)c(F)c3)CC2)c(Cl)c1` has a maximum solubility of 100 µM (0.1 M sodium acetate with 0.01% Triton X-100; pH 5.5).
With `Nc1ncc(-c2cnn(CCO)c2)c2scc(-c3ccc(NC(=O)Nc4cccc(F)c4)cc3)c12` the AUC(0-24 h) was 20400 ± 9870 ng·h/mL (patients, plasma; oral, 480 mg twice weekly, day 1).
Under “mRNA fold change”, `CS/C(S)=N/CCCC[S+](C)[O-]` (racemic) is recorded as 1.15 (RT-PCR, refers to: Cyp2b15; rat, colon; oral gavage, 200 mg/kg, dosed for four days; reference: vehicle).
The MRT(0-inf) of `O=C(/C=C/c1ccc(O)c(O)c1/C=C/c1ccc(O)c(O)c1)O[C@H](Cc1ccc(O)c(O)c1)C(=O)O` is reported as 16.4 ± 18.9 h (UPLC-MS/MS; Wistar rat, microcirculation dysfunction model, plasma; oral, 100 mg/kg Salvia miltiorrhiza stem-leaf extract FT).
`Cc1nc2cccc(OCC(C)(C)C(=O)NC(C)C)c2c(N)c1C(=O)O` gave an AUC(0-24 h) of 566 ng·h/mL (female Sprague-Dawley rat, plasma; oral food admix, 60 mg/kg/day, day 7, 90-day dietary study).
Under “trough concentration at steady state”, `N[C@@H](CC(=O)O)Cn1nnc(-c2ccc(Oc3ncc(Cl)cc3F)cc2)n1` is recorded as 30 to 40 ng/mL (human, plasma; 20 mg twice daily, 12 h).
With `O=C(O)[C@H]1/C(=C/CO)O[C@@H]2CC(=O)N21` the Vd was 66.7 L/kg (male Sprague-Dawley rat, plasma; intravenous, 144 mg/kg).
`Cc1cccc(C)c1OCC(=O)N[C@@H](Cc1ccccc1)[C@@H](O)C[C@H](Cc1ccccc1)NC(=O)[C@H](C(C)C)N1CCCNC1=O` has an amorphous solubility of 15.4 µg/mL (UV spectroscopy; phosphate buffer with HPMCAS; pH 6.5, 37 °C).
For `C=CC(N)CCC(=O)O` (stereo not shown), the AUC(0-inf) was 1780 ± 37 ng·h/mL (male Sprague-Dawley rat, plasma; oral, 1.0 mg/kg, formulation 3, added: low-fat infant formula 1500 mg/kg).
`Cn1c(-c2ccc(C(N)=O)cc2F)nnc1C(C)(C)Oc1c(F)cc(Cl)cc1F` — result for “Tmax range over subjects”: 1 to 4 h (young non-Japanese adults, plasma; oral, 20 mg single dose, day 1, high-dose multiple-dose study).
The AUC(0-24) of `CC1=C2C[C@H]3[C@@H](CC[C@@H]4C[C@H](NS(C)(=O)=O)CC[C@@]43C)[C@@H]2CC[C@@]2(C1)O[C@@H]1C[C@H](C)CN[C@H]1[C@H]2C` is reported as 11300 ng·h/mL (patients, plasma; oral, 210 mg daily, day 22, cycle 1).
With `NC(=O)c1ccc2c(c1)C(=O)CCc1ccccc1C(=O)N2` the kinetic solubility was over 100 µg/mL (nephelometry; aqueous buffer; 30 min, pH 6.5).
`O=S(=O)(c1ccc(F)cc1)c1cc(F)c(O)c2ncccc12` has a free concentration of 48 nM (rat Sprague-Dawley male, plasma; oral, 10 mg/kg, 4 h).
`COc1c(C)c2c(c(O)c1C/C=C(\C)CCC(=O)O)C(=O)OC2` has a trough concentration of 2030 ± 1500 ng/mL (stable kidney transplant recipients, plasma; oral, dose not given, 12 h post-dose, steady state, added: cyclosporine).
`NCCCC[C@@H]1NC(=O)[C@@H](Cc2c[nH]c3ccccc23)NC(=O)[C@H](c2ccccc2)NC(=O)[C@@H]2C[C@@H](OC(=O)NCCN)CN2C(=O)[C@H](Cc2ccccc2)NC(=O)[C@H](Cc2ccc(OCc3ccccc3)cc2)NC1=O` gave a lipase level of 547 U/L (human, serum; subcutaneous, 2.5 µg, 48 h).
`C[C@@H](O)[C@H]1C(=O)N2C(C(=O)O)=C(S[C@@H]3CN[C@H](C(=O)N(C)C)C3)[C@H](C)[C@H]12`: “time above MIC” 74% (microdialysis; pig, Danish Landrace, subcutaneous adipose tissue; intravenous, 1000 mg over 10 min, 450 min dosing interval, added: 0.125 µg/mL MIC; reference: dosing interval).
`C[C@@H](c1ncncc1F)[C@](O)(Cn1cncn1)c1ccc(F)cc1F` has a trough concentration of 2860 ng/mL (patients, hematological disorders, proton pump inhibitor users, plasma; 200 mg, 12 h, steady state, median).
`Cc1ccc(-c2ncc(Cl)cc2-c2ccc(S(C)(=O)=O)cc2)cn1` has an AUC(0-24 h) of 1110 ng·h/mL (hip replacement patients, CSF; oral, 120 mg at 0 h and 24 h).
With `CC(C)NC[C@@H](C(=O)N1CCN(c2ncnc3c2[C@H](C)C[C@H]3O)CC1)c1ccc(Cl)cc1` the AUC(0-∞) was 522 ng·h/mL (human, Mild hepatic function, plasma; oral, 100 mg single dose, NCI classification, geometric mean).
With `C=CC(=C)CC[C@]1(C)[C@H](C)C[C@H](OC(=O)CCCCCCCCC)[C@@]23C(=C[C@H](OC(C)=O)C[C@@H]12)[C@@H](OC(C)=O)O[C@H]3OC(C)=O` the haemolysis was 50.6% (haemolysis; 500 µM).
For `CC(C)[C@H](NC(=O)[C@@H]1CCCN1C(=O)[C@H](CCCNC(=N)N)NC(=O)[C@H](CS)NC(=O)[C@H](Cc1c[nH]c2ccccc12)NC(=O)[C@H](CCCNC(=N)N)NC(=O)[C@@H](Cc1ccccc1)NC(=O)[C@H](Cc1c[nH]cn1)NC(=O)[C@H](CCC(=O)O)NC(=O)[C@H](CS)NC(=O)[C@H](CS)NC(=O)[C@H](CCCCN)NC(=O)[C@@H]1CC(=O)N[C@@H](CCCNC(=N)N)C(=O)N[C@@H](C(C)C)C(=O)N[C@@H](CC(=O)O)C(=O)N[C@H](Cc2ccc(O)cc2)C(=O)N1)C(N)=O` [technetium-99m labelled], the tissue uptake was 0.55 ± 0.35 %ID/g (C57 mouse, female, B16/F1 melanoma, blood; intravenous, 2 h, added: NDP-MSH 10 µg co-injected).
For `Nc1ccc(-c2nc(-c3ccc(Oc4ccc(C(F)(F)F)cc4)cc3)no2)cc1`, the bioavailability was 100% (female CD-1 mouse, plasma; oral, 50 mg/kg).
The parent remaining of `CN[C@@H]1[C@H](O)[C@H](NC)[C@H]2O[C@]3(O)[C@H](O[C@@H]2[C@H]1O)O[C@H](C)C[C@H]3NC(=O)Cc1cc(Cl)c(C)cn1` is reported as 93.5% (glutathione conjugation; human liver S9; 100 µM, 2 h, pH 7.4, added: glutathione 0.2 mM).
`CC[C@H](C)C(=O)O[C@H]1C[C@H](O)C=C2C=C[C@H](C)[C@H](CC[C@@H](O)C[C@@H](O)CC(=O)O)[C@H]21` — result for “transfer to maternal circuit”: 13 ± 2% (perfused human placental lobule; 50 ng/mL, 4 h, fetal-to-maternal; reference: initial donor concentration).
Under “RBC/plasma partition coefficient”, `CS(=O)(=O)OC[C@H](O)[C@@H](O)COS(C)(=O)=O` is recorded as 0.73 and 0.87 and 0.84 (Wistar rat, male, red blood cells and plasma; intraperitoneal, 500 mg/kg, 4 h).
For `colistin B methanesulfonate`, “rate of conversion to colistin” read 1.4 ± 0.125 mL/min/kg (one-compartment PK model; rat; i.p., 20 mg/kg colistin base activity).
`OC[C@H]1O[C@@H](c2ccc(F)c(Cc3cc4ccccc4s3)c2)[C@H](O)[C@@H](O)[C@@H]1O` has an AUC of 3020 ng·h/mL (male ICR mouse, plasma; oral, 3 mg/kg, 24 h).
For `CCOc1ccc(Cc2cc([C@@H]3S[C@H](CO)[C@@H](O)[C@H](O)[C@H]3O)c(OC)cc2C)cc1`, “elimination rate constant” read 1.89e-05 ± 2.02e-06 s⁻¹ (human; oral, 5 mg, fasted).
For `CCCCC/C=C/C(=O)CCc1ccc(O)c(OC)c1`, “amount recovered, maximum” read 1250 ng (human ileostomy patients, ileal effluent; oral, 5 g TU-100, 4 h, no β-glucuronidase treatment).
`CCCCCCCCCCCCCNCC(=O)N(CC(=O)N(CCCCN)CC(=O)N(CCN)CC(=O)N(CC(N)=O)C1CCCC1)C1CCCC1`: “acetonitrile at elution” 68.1% (preparative RP-HPLC C18; water to acetonitrile gradient; 0.05% TFA in eluent; higher = more hydrophobic).
`COc1ccc2nc([S@@+]([O-])Cc3ncc(C)c(OC)c3C)[nH]c2c1` has an adverse events of 0% (human healthy; 40 mg, vessel puncture site reaction).
`CC[C@H](C)[C@H](NC(=O)[C@H](CC(C)C)NC(=O)[C@H](Cc1c[nH]c2ccccc12)NC(=O)[C@H](C)NC(=O)[C@@H](NC(=O)[C@H](Cc1ccccc1)NC(=O)[C@H](CC(=O)O)NC(=O)[C@H](CCCNC(=N)N)NC(=O)[C@H](C)NC(=O)[C@H](C)NC(=O)[C@H](CC(C)C)NC(=O)[C@H](C)NC(=O)[C@H](CC(=O)O)NC(=O)[C@H](CC(C)C)NC(=O)[C@@H](NC(=O)[C@@H](NC(=O)[C@H](C)NC(=O)[C@H](CC(C)C)NC(=O)[C@H](CCC(=O)O)NC(=O)[C@H](CO)NC(=O)[C@H](CO)NC(=O)[C@H](Cc1ccccc1)NC(=O)[C@@H](NC(=O)CNC(=O)[C@H](CCC(=O)O)NC(=O)CNC(=O)[C@@H](N)Cc1cnc[nH]1)[C@@H](C)O)[C@@H](C)O)[C@@H](C)CC)[C@@H](C)CC)C(=O)N[C@@H](C)C(=O)N[C@H](C(=O)N[C@@H](CCCCN)C(=O)N[C@H](C(=O)N[C@H](C(=O)N[C@@H](CC(=O)O)C(=O)N[C@@H](CCCCN)C(=O)N[C@@H](CCCCN)C(=O)N[C@@H](CCCCN)C(=O)N[C@@H](CCCCN)C(=O)N[C@@H](CCCCN)C(=O)N[C@@H](CCCCN)C(N)=O)[C@@H](C)O)[C@@H](C)CC)[C@@H](C)O` has an AUCtau of 0.833 nM·h (immunoaffinity LC-MS/MS; healthy human subjects, plasma; subcutaneous, 5 mg once weekly, day 36 after 6 doses, steady state, geometric mean).
With `CCc1nc(C(N)=O)c(Nc2ccc(N3CCC(N4CCN(C)CC4)CC3)c(OC)c2)nc1NC1CCOCC1` the AUC(0-72h) was 951 ng·h/mL (healthy humans, after high-fat breakfast, plasma; oral, 40 mg, single dose).
`C[C@@H](Oc1ccc(S(C)(=O)=O)cc1C(=O)N1C[C@@H]2C[C@]2(c2cc(C(F)(F)F)on2)C1)C(F)(F)F` gave a trough concentration of 266 nM (human male, plasma; oral, 25 mg once daily, 312 h).
The CL of `CC(C)C[C@H](NC(=O)[C@H](Cc1ccccc1)NC(=O)c1cnccn1)B(O)O` is reported as 160 mL/min (paediatric ALL or AML patients, plasma; intravenous, 1.3 mg/m^2 twice weekly, day 8, population PK, BSA 1.8 m^2).
`CCCC[C@H](NC(C)=O)C(=O)N[C@H]1CCC(=O)NC[C@@H](C(=O)N[C@@H](Cc2c[nH]c3ccccc23)C(N)=O)NC(=O)[C@H](CCCNC(=N)N)NC(=O)[C@@H](Cc2ccccc2)NC(=O)[C@H](Cc2c[nH]cn2)NC1=O` gave a Vss/F of 191 L (healthy human, both sexes, plasma; subcutaneous, 1.0 mg once daily, day 7, geometric mean).
The AUC(0-inf) of `O=C1N=C(N2CCOCC2)CN1c1ccc(Cl)cc1` is reported as 61700 ng·h/mL (beagle dog, both sexes, plasma; oral, 30 mg/kg twice daily, day 5, tablets, after 4 days dosing).
Under “volume of distribution”, `COc1ccc(/C=C\c2cc(OC)c(OC)c(OC)c2)cc1OP(=O)(O)O` is recorded as 1.74 ± 0.83 L/kg (rat Sprague-Dawley male, plasma; intravenous, 28 mg/kg).
